# Results of several laboratories.
# Numbered parts are unrelated; each lists some results of a single study. Positions count from the first letter of the parent shown.

# Series 1 — technique: protein binding microarray; molecule type: double-stranded DNA, one strand shown; medium: in vitro; concentration: not given; relative to: not given; reading: higher = stronger binding
# Target: Histone acetyltransferase KAT6A, winged helix 1, GST fusion (KAT6A, Homo sapiens, UniProt Q92794, residues 1-85)
# Setting: 8-mer, flanks averaged, mean of 2 arrays, mostly near background
# Construct (chain): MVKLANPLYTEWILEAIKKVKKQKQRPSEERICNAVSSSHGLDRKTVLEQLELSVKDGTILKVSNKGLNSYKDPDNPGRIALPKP
Oligonucleotide,E-score
CTTAAGCC,0.126
AGCTGTTG,-0.128
TGATTGCA,-0.294
CAGTAGGC,-0.235
ATTTCGTG,-0.18
ACTACGAC,-0.122
ATAGTGGA,-0.199
ATGTCTCG,0.0666
CGTTACGA,0.103
AACCCTGG,-0.137
TGGTGACA,-0.157
CTCTGACA,-0.121
CAGTGCTA,-0.126
ATGCACGG,0.182
AGCGGTGG,0.233
CCGTGCAG,0.134
ACCTGTAT,-0.193
AAGCTGAT,-0.0672
CAGGGACA,-0.221
GGTAGTAA,-0.129
TTAATGAA,-0.117
CTTTCCGC,0.238
AATCGCGT,0.116
ATAATACG,0.0448
ATATGCCC,-0.153

# Series 2 — target: CCNA1, cyclin fold, Cln2 fusion (human); technique: yeast growth competition, sequencing; medium: yeast; setting: weak parent motif; relative to: not given; reading: higher = stronger binding
# Starting sequence: SCAPER docking peptide (human); SNARRSLNFGGST; partner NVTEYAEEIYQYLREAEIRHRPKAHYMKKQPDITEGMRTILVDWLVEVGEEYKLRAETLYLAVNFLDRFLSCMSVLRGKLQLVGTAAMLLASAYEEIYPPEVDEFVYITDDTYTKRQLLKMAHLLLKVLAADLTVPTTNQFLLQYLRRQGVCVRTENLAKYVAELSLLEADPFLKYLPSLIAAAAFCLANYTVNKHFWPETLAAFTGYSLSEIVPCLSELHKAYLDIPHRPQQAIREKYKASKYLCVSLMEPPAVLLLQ
Change,normalised enrichment score
A3G,0.192
S1L,0.622
L7D,0.619
N2C,0.389
R4D,0.33
T13G,0.704
T13M,0.538
R5I,0.232
F9N,0.196
R4Q,0.0779
G10C,0.446
S1I,0.479
T13C,0.688
L7R,0.223
L7N,0.184
S6H,0.519

# Series 3 — technique: DHFR PCA, deep sequencing; medium: yeast; with: (+)-ABA 0.0091 µM; relative to: wild-type fitted maximum; reading: higher = stronger binding
# Target: ABI1, truncated, D143A, DHFR fusion (Arabidopsis thaliana)
# Setting: methotrexate growth selection, single substitutions
# Starting sequence: PYL1, truncated, DHFR fusion (Arabidopsis thaliana); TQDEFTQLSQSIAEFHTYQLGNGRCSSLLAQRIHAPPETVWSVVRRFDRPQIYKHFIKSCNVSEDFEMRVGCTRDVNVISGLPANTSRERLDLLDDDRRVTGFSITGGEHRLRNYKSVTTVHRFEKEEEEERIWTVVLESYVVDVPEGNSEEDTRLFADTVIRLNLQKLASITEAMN; partner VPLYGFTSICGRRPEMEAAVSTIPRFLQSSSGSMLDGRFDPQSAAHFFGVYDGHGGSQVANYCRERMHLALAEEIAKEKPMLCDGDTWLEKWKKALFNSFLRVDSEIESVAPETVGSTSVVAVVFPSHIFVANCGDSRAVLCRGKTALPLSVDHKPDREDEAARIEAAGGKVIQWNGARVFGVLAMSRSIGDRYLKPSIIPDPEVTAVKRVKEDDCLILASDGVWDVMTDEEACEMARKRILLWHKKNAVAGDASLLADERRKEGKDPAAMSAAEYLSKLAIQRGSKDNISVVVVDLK
Change,relative binding score [%]
V118L,-1.79
F103K,-6.73
R123Q,71.5
C72P,-3.92
S140R,-0.0868
R99T,1.54
L8G,-4.07
S9F,12.3
S140Y,6.95
S140T,2.8
T119S,-4.39
V142R,5.83
R46G,-3.68
N177C,52.5
G71V,-1.37
V121S,6.36
R32P,0.468
I79W,20.4
E130Y,1.96
C25W,-1.36
M68R,-1.9
D144F,-0.961
T73W,16.8
S9T,28.4
V43K,-1.14

# Series 4 — technique: RNA Bind-n-Seq; molecule type: RNA; medium: in vitro; concentration: 365 nM; relative to: no-protein control; reading: higher = stronger binding
# Target: RNA binding protein fox-1 homolog 2, RRM domain, GST-SBP tag (RBFOX2, Homo sapiens, UniProt O43251-10, residues 100-194)
# Setting: natural RNA segment, single round, ends assumed
# Residues (chain): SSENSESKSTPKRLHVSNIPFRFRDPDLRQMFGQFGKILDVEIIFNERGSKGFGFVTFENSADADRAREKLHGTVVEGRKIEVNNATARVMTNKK
Oligonucleotide,RBNS enrichment (R)
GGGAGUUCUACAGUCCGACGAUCCGUUCAGGAAGUUUUUAGCUCUGUACUUGCAUGGUGUUGUGUGAACUAAGAACUUUCUGGAGCCUGGUGCCCUACUACCUUCCUGCCUCAGAAGAGCUCAUGUCCUGGGAUGGAAUUCUCGGGUGCCAA,36.2
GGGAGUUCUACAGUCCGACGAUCUGAGCUGCACAGUUCAGAUGAGACUGGACCCUCCCUUACUUACUCCUGAGCCCUGCUCUCCUCUCCUCCAUCCUGUCCCAAUCUGUGUCCCCCUUGACCUGUGGCUCCAGUGGAAUUCUCGGGUGCCAA,0.663
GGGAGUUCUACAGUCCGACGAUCGAUGGUGGGGCCAGUGGUUGUGUGAAAGCAGGAGGGGCAGCCCUCCUGGACAAGUGUGAUCCCCCUAUAAACGGCUCUCAGGAGGUUAGUGAGUAGGAGAUUCUGCCUUGUGGAAUUCUCGGGUGCCAA,0.324
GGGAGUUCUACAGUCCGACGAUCUCCUCUCCUGUCACCCUAAGAGCCACUGAGUUGUGUAGGGAUGAAGACUAUUGAAGACUCCAUUGCCAAACCAUGGCCUUUCCUCAGUGUUGUAAGGCCUAUGCCAAGGAUGGAAUUCUCGGGUGCCAA,0.22
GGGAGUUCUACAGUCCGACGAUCGAGUCUUCCUGUUUUUCCUGUACCGGGUCAUGGUAAUUUUUGGUUGUUUUGGUUGUUUUCUUAAAAAACAAGUUAAAACCUGACGAUUUCUGCAGGCUGUGUAAGCAUGUUGGAAUUCUCGGGUGCCAA,0.752
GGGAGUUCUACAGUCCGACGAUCUCACCAAUUUGUACAUUAUUUGUUGUCCUUUACUACUGUAAACAGUAAAUAUAGUUUGGUAUUCUGUUCUUGGCUUCUACUAAACACUGCAUUUGAAGGUUGGGGCAUACUGGAAUUCUCGGGUGCCAA,0.688
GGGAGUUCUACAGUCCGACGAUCGUGGGAAAGACACAAGCAUCAUGCAGUGGCGAGUCAUUAGUCCCUGUGGGAGCCCGAGGACGCAGACUCGAGUUCCGCUUGGUCACUGUGAUUUCUGUUUUGUCUACAGAUGGAAUUCUCGGGUGCCAA,0.423
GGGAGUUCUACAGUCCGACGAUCUAGUUGUCUUUCUAGUUAUGAAAAGAACGUUGACACACGUAGGCAUGGCCGCCCCACUCAGGUGUUCGUUGUUACAGUGCUAAUGGAUCCUGGGUGCAGUAGGCGCUGGGUGGAAUUCUCGGGUGCCAA,0.69
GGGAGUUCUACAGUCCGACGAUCAAGAGGGGCACAGUAAGAGGGGGAGCUGAGCUGGGCCUGCCUGCAGGAAGACCUGGCCCAGGCUGCUGUGGGCAGAGGCCCUCAUCAAGCCAAGUGGAAUGGAGCCGGCCUGGAAUUCUCGGGUGCCAA,0.819
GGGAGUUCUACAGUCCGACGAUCUUCUUUGCCUUUCAAAACAAAAGCAAAACACAGUGAACUUCACCACGGAGCUGCACAGCGUGGGGAACUCAUCCAUCACUUUCAAAAUUAGAGUCAUUUGAUCCAAGUUGUGGAAUUCUCGGGUGCCAA,0.576
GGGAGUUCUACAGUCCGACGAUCAGUGCGUGCUUGGCAGUUCCAUGUUACCUACCACCCAUUAGUUAGCAAGCGAACUUAGUGCCACAGGUGUUCAUUUACUCGGGAAAUGGUUUUGCUUUUUGUAUUGUCUAUGGAAUUCUCGGGUGCCAA,0.71
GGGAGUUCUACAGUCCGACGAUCUGAGUGAUGAGCACUUCCAAGCACCCCUCUGCCCUUUCUCUGUCCUUAUGCUGUCCCGGCCUCGCCAGCCCUCUGGGGCAUUGUGGGAGAUGCCUGCCAGGAAUGAGCAAUGGAAUUCUCGGGUGCCAA,0.714

# Other studies, line by line
Molecule,target,assay,system,conditions,scale,measurement,value
"PhoQ, residues 284 288 289 292 302 303 GANMMA","PhoP, residues 12 14 15 18 19 LYFRQ (Escherichia coli, UniProt P23836)","Sort-seq, refers to: YFP reporter",E. coli,"PhoQ-PhoP variant library, with: 10 µM Mg2+","relative to: high Mg2+ state, higher = stronger signaling",fold induction,14.7

# Excerpt of the above (series 3):
Change,relative binding score [%]
N177C,52.5
G71V,-1.37
V121S,6.36
R32P,0.468
I79W,20.4
E130Y,1.96
C25W,-1.36
M68R,-1.9
D144F,-0.961
